Measurements from different studies.
Parts stem from different laboratories: compare values within a part only. Substitutions count along the parent as printed.

Set 1
Target: RNA binding protein fox-1 homolog 2, RRM domain, GST-SBP tag (RBFOX2, Homo sapiens, UniProt O43251-10, residues 100-194)
Technique: RNA Bind-n-Seq
Form: RNA
Sample: in vitro
Concentration: 365 nM
Setting: natural RNA segment, single round, ends assumed
Relative to: no-protein control
Direction: higher = stronger binding
Construct (chain): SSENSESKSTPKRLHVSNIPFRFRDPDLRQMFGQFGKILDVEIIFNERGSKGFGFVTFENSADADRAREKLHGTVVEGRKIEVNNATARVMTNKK
Strand	RBNS enrichment (R)
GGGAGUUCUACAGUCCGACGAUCGUGUGGCGAGAGCCUGGGCCAGCCCACAGCGUUCCUAGUCAGGCAGCCACACCUUGGUCCUCAUCUUGGUCCCUUCCAAUCUGAAACCUCGUGCCUGGCUCGUCUGCCACUGGAAUUCUCGGGUGCCAA	0.366
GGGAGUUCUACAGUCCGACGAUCUGGAAAUUCCUUGCCCCACAGUUGUGUUCAUGCUGAAUCCACCUCGGAGCAUGGUGUUUUCAUUCCCCCUUCCUAGUGAACCACAGGUUUUAGCAUUGUCUUGUUCUGUCUGGAAUUCUCGGGUGCCAA	0.35
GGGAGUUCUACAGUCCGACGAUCUCCUGGGGGAGGCAGGGGUUGGCAGACCCUUGCCUGCGUGGUGCCGUCCUGCUCAUGUGGUAGGCUAGCAAUAUUUUGGUUAAAAUCAUGUUUGUGACUGUAACCAUUUGUGGAAUUCUCGGGUGCCAA	0.389
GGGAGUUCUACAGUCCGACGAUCGGGAAGUAUCAGGUUCUGGGAGGCAACAGCAUUAAGUGAUAAGAAAAGGAGACAUUCUGGCAAAGCCAAUCUGCUUAAAGGCAAAGUCCAGAACCUGGAACCUAGAGGCCUGGAAUUCUCGGGUGCCAA	0.656
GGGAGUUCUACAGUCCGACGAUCCAUCCUGUAUAAGCACUGAGAAAGCAAAAACAAUAACACUAAAAUUUUAGGCACUCUUAAACCAUCUGCCUCUAAAAGCAUUGGAUGUAGCAUUGCGCAAUUAGGUUGUUUGGAAUUCUCGGGUGCCAA	1.37
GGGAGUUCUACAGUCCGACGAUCUAGUUAAGAGGUUCCACAGAGUAUUUUCCUUUCUGCUCCCAGUACCUCUCAAACGAUCUUUAGAUAGUUAACUUCUACUACUAUUUAACGUUAUCUUUUAGCACUCAUAGUGGAAUUCUCGGGUGCCAA	0.644
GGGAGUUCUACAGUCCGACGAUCUGGUCUCCUACAGACACAGUGAUCAAGCUGGAUGACUCCUGCUCUUUGGUGCUUUCAACUCAUUGGGAAGAGCUGCAGAUAUUACCAAAAUAGGCUGGCUACAUGAACACUGGAAUUCUCGGGUGCCAA	0.34
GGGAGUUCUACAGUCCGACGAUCCGCAAUGUUAGAAGAUGCCAUAAAGUCACAUGGACAACUCAUGGUACUUUUUCUGGGUUGGCAAUUUGAUGACCACUUUGGUUCAGUCAAAAUGUGUGUACUUUUGGGCCUGGAAUUCUCGGGUGCCAA	0.293
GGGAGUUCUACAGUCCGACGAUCCAGAUGGGGGCCUGUGGCUCCCGUUUUCAUUGUAGUAUUUUAUCCCCUGCACCCACUCCCUUCAUAGAAUCUAGUCAGAAUAACGCCUCUGGGGGUGCAGGUUCUCGGACUGGAAUUCUCGGGUGCCAA	0.299
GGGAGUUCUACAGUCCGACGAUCUCCUACCUUUUGACAUUGUGACUUGGCUUUGUUAAAAACUUGCAAAAAAAAUCAUGUUUUAAAUGUUAUGAUUUUGUGUUAGGCUGAAUUUAUAGCUGUCCUUGACCUCGUGGAAUUCUCGGGUGCCAA	1.27
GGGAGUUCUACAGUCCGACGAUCUGACAAAAUAUAUUUAUAACUACGUAUUAAAAGAAAAAAAUAAAAUGAGUCAUUAUUUUAAAGGUAAUCAUGAUUUUUUUUUUCUCCUUAAUCCUUUCUCUUUUCCUUCGUGGAAUUCUCGGGUGCCAA	0.724
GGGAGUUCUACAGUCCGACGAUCCUUAAGAGCCAGAGCCAUAUAAGCAUCUUGGGAAAGCAAGUUUGAACCAGCUGCUGGUGUAAUGUACAGUUAUAUUUGUCUAUAAAUGGAGCUGUUUAUGGCAAUUUAAUUGGAAUUCUCGGGUGCCAA	0.933

Set 2
Target: Protein max, full length (MAX, Homo sapiens, UniProt P61244-2, residues 1-151)
Technique: protein-binding microarray
Form: double-stranded DNA, one strand shown
Sample: in vitro
Concentration: not given
Setting: k-mer, scored over probes, only values ≥0.25
Direction: higher = stronger binding
Strand	E-score
GTGGAGCA	0.251
CACGCATA	0.288
CGTGTGAA	0.263
GCACATGC	0.478
AAACACGC	0.411
GTGCGCCA	0.258
AGCACCTG	0.32
GCGGTCAC	0.265
CACATGGG	0.473
ACGTGAGT	0.354
CCCCTGAC	0.283
ACACGATG	0.296
CGACATGC	0.359
GCACGCAC	0.368
CCCGTGCA	0.335
GGGTCACA	0.261
ACATGGGA	0.363
GTGAAACA	0.255
TACCACGA	0.285
CGTGGAGA	0.37
CTCACGCA	0.296
ACGCTGGA	0.27
GAAAGCAC	0.267
ATGTTAGA	0.275
CGCGTGAG	0.406

Set 3
Target: Histone acetyltransferase KAT6A, winged helix 1, GST fusion (KAT6A, Homo sapiens, UniProt Q92794, residues 1-85)
Technique: protein binding microarray
Form: double-stranded DNA, one strand shown
Sample: in vitro
Concentration: not given
Setting: 8-mer, flanks averaged, mean of 2 arrays, mostly near background
Relative to: not given
Direction: higher = stronger binding
Residues (chain): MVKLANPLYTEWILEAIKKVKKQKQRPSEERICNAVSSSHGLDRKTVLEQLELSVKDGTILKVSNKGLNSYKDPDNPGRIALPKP
Strand	E-score
GGCCTCAA	-0.107
TTAACCAA	-0.282
AACCGCAG	0.0423
AGCACTTA	-0.165
GCGACGCC	0.376
AAATCAAT	-0.171
AGAATCGA	-0.103
CACGAGGG	-0.166
CCCAGACC	-0.0366
GATACTGC	0.0611
ACTGTCCT	-0.167
CGGCATTA	0.369
CCAAGTCA	-0.299
ACTTCGCC	0.0388
TACGCTCA	0.067
AGCGATCG	0.0374
ACTGGTCA	-0.089
CCCGACTC	0.0664
AGTGAAGC	-0.0428
AAAGGGTT	0.0797
AATGGTCC	0.0343
CTCTAACC	-0.0567

Set 4
Target: Centromere-binding protein 1, full length, His-tagged (CBF1, Saccharomyces cerevisiae, UniProt P17106, residues 1-351)
Chain of UniProt P17106 (whole entry, looked up): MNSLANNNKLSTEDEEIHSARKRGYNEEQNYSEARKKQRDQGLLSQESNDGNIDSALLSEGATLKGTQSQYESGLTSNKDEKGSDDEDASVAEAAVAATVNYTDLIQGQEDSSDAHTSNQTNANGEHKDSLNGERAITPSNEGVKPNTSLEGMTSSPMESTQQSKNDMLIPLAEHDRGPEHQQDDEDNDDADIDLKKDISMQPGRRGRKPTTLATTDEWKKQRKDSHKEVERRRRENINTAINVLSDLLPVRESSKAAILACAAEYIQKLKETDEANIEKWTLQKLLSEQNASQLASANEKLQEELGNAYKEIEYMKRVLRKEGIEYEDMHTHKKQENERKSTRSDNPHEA
Technique: competition protein-binding microarray
Form: double-stranded DNA, one strand shown
Sample: in vitro
Concentration: 2 µM
Setting: whole 60-bp probe, lowest competitor level
Added: Pho4 competitor, 0.05 µM
Direction: higher = stronger binding
Strand	fluorescence intensity [a.u.]
GCTTTAGTTGCTCTTCGCGTGGTGAATATTTGCAGAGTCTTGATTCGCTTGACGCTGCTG	84.9
CTTTCCCGATCTTGGGCGGTGGGTGTAGCACATTTGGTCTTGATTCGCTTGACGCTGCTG	64.4
CTTCTGTAAATTTGATGGGTGGGTGGACGCGCCCCGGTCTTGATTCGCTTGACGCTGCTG	89.1
TACGTCCAGCCAAATCACATGATACTGGCTTGAACAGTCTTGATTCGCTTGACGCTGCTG	783
TGCGCAACAACTTGTTCTGTGGGTGTATGTCTAGAAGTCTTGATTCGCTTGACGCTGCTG	72.1
TATACTTTCCCTACGCACATGAAACGCATACCCCAAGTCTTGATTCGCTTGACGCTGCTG	72.5
TGCGCAACAACTTGTCACTTGACTTTATGTCTAGAAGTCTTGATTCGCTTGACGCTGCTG	139
AGCAGCATTATCCATGACATGACAAGGATCTACCGAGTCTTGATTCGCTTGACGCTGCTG	62.8
CTAACGAAGGTTTGGGTCGTGGGTGACAAGCCAAGTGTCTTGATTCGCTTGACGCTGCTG	57.6
CGTCCTAGCGATTCGCACGTGTTTTCCATGAGGAAGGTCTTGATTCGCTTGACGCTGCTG	1090
CTAACGAAGGTTTGTCGGGTGGGTGACAAGCCAAGTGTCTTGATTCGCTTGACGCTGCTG	65.8
CGGGGTTAAGTTTGATGAGTGGGTGGCTTGCAGCAGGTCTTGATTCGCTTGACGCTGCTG	71.7
GCCCGACGATTTGCCCACATGTCAATCGGATTGGGCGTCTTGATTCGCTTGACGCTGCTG	80.1
ATCCTCTAACGCTTCTACCACCGTCTCTTCTACGATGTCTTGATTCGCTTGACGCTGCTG	57.7
CAGCTTCAACCAAATAACGTGGGTATTCTGGAACGAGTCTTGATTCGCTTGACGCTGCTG	101
GATACCAGGAATGTAACCGTGACGGTCAGCATAATCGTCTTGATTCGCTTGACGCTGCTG	76
CGTCCTAGTGATTGTTGTGTGGGTGCCATGAGGAAGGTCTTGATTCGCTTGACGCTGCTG	90.4
AATTTATCTTGGCAAAACGTGGGTATGGAACTTTTGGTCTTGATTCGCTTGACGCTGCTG	115
TGCGCAACAACTTGCACAGTGGGTGTATGTCTAGAAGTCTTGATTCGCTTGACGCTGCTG	70.4
GCCCTGGACGGAAAGCACGTGCTAAAGTGTTGCCCGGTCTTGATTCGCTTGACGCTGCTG	1780
GAGCTTGTGGGTCAACACGTTTCTTGGGATGAGACAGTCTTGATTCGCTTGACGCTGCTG	110
CTGCCGTTGCTTCAGCACATGTTCCAAAAGACCTTGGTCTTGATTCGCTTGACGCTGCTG	156

Set 5
Target: CCND2, cyclin fold, Cln2 fusion (human)
Technique: yeast growth competition, sequencing
Sample: yeast
Setting: weak parent motif
Relative to: not given
Direction: higher = stronger binding
Starting sequence: SAMHD1 docking peptide (human); ASKSRVQLFKDDP; partner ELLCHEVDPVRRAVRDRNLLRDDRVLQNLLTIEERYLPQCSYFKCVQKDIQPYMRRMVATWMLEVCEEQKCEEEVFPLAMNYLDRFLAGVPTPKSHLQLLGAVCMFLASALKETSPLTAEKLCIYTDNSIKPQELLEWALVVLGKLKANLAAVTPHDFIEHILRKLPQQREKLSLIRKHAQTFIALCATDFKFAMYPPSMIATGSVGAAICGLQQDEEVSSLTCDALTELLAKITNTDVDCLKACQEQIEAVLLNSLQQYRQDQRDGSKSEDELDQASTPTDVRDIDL
Change	normalised enrichment score
ASKFRVQLFKDDP [S4F]	0.33
ASKSFVQLFKDDP [R5F]	-0.0446
ASKSIVQLFKDDP [R5I]	0.551
AVKSRVQLFKDDP [S2V]	0.379
ASKSHVQLFKDDP [R5H]	0.0914
ASKSRVQLFKDHP [D12H]	0.0335
ASKSRVQLSKDDP [F9S]	-0.118
ASKSRVQLFKDFP [D12F]	-0.14
ASKSRVQLFKLDP [D11L]	-0.468
ASKSQVQLFKDDP [R5Q]	0.203
ASKSRVRLFKDDP [Q7R]	0.501
ASKSRVQLFKDGP [D12G]	-0.0856
ASISRVQLFKDDP [K3I]	0.333
ASKSRVQLFKGDP [D11G]	0.135
ASKSRVQAFKDDP [L8A]	-0.127
ASKSRVQLFHDDP [K10H]	0.00433
ASWSRVQLFKDDP [K3W]	0.327
ASKWRVQLFKDDP [S4W]	-0.00467
ASKIRVQLFKDDP [S4I]	0.154
ASKSRVQLFKVDP [D11V]	0.0804
ASKSRVQLFKDWP [D12W]	-0.4
AHKSRVQLFKDDP [S2H]	0.346
ASKSRRQLFKDDP [V6R]	-0.0496
ANKSRVQLFKDDP [S2N]	0.0838
ASHSRVQLFKDDP [K3H]	0.447

Set 6
Target: Sal-like protein 4, full length isoform B (SALL4, Homo sapiens, UniProt Q9UJQ4-2, residues 1-616)
Technique: universal PBM
Form: double-stranded DNA, one strand shown
Sample: in vitro
Concentration: not given
Setting: 8-mer, flanks averaged, mean of replicates
Direction: higher = stronger binding
Strand	E-score
CTGCAGCA	-0.148
AATGTGTG	0.119
ATCACAAC	0.176
GCTTAACC	-0.0897
CCCAGTCC	-0.179
CGCATGTC	-0.0629
CGCTGTGC	-0.166
AAGGGGGG	-0.31
CCTGGCAC	-0.195
GATAGGCA	0.147
GTGCTTTA	0.0809
GAAGGGTA	-0.0427
TTACTCAA	0.239
AGGTCCTC	-0.19
ATTAGTTA	0.332
CCAGGCGA	-0.333

Some of these lines once more (set 3):
Strand	E-score
AGAATCGA	-0.103
CACGAGGG	-0.166
CCCAGACC	-0.0366
GATACTGC	0.0611
ACTGTCCT	-0.167
CGGCATTA	0.369
CCAAGTCA	-0.299
ACTTCGCC	0.0388
TACGCTCA	0.067
AGCGATCG	0.0374
ACTGGTCA	-0.089
